Measurements gathered from unrelated publications.
Compare with care: the assays were run in different laboratories.
Organism: Pseudomonas aeruginosa

Compound | technique | strain | sample | time | temperature | direction | MIC
CCCCCCCC[C@@H]1NC(=O)[C@@H](Cc2ccccc2)NC(=O)[C@H](CCN)NC(=O)[C@@H](NC(=O)[C@H](CCN)NC(=O)[C@@H](NC(=O)[C@H](CCN)NC(=O)c2ccc(-c3ccccc3)cc2)[C@@H](C)O)CCNC(=O)[C@H]([C@@H](C)O)NC(=O)[C@H](CCN)NC(=O)[C@H](CCN)NC1=O | broth microdilution | ATCC 27853, polymyxin-susceptible |  |  |  |  | 4 µg/mL
CC(C)C[C@@H]1NC(=O)[C@@H](CC(C)C)NC(=O)[C@H](CCN)NC(=O)[C@@H](NC(=O)[C@H](CCN)NC(=O)[C@@H](N)[C@@H](C)O)CCNC(=O)[C@H]([C@@H](C)O)NC(=O)[C@H](CCN)NC(=O)[C@H](CCN)NC1=O | broth microdilution | NDM-1 | CAMHB with polysorbate-80 | 16 h |  |  | > 64 µg/mL
CC(C)C[C@H](NC(=O)[C@@H]1CSCC(=O)N[C@@H](CCCCN)C(=O)N[C@@H](CC(C)C)C(=O)N[C@@H](CCCCN)C(=O)N[C@H]2CCCCNC(=O)[C@H](CCCCN)NC(=O)[C@H](CC(C)C)NC(=O)[C@H](CCCCN)NC(=O)CSC[C@H](NC(=O)[C@H](CC(C)C)NC(=O)[C@H](CC(C)C)NC(=O)[C@H](CCCCN)NC2=O)C(=O)N[C@@H](CCCCN)C(=O)N[C@@H](CC(C)C)C(=O)N[C@@H](CCCCN)C(=O)N1)C(N)=O |  | PAO1 |  | 18 h |  |  | > 256 µg/mL
CC[C@H](C)[C@H](NC(=O)[C@H](Cc1c[nH]cn1)NC(=O)[C@H](CCCCNC(=O)[C@@H](NC(=O)[C@H](CCCCN)NC(=O)CSC[C@H](NC(=O)[C@H](Cc1ccccc1)NC(=O)[C@H](CCCCNC(=O)[C@H](CC(C)C)NC(=O)[C@H](CCCCN)NC(=O)[C@H](CCCCN)NC(=O)C[C@@H]1O[C@@H](C)[C@@H](O)[C@@H](O)[C@@H]1O)NC(=O)[C@H](CC(C)C)NC(=O)[C@H](CCCCN)NC(=O)[C@H](CCCCN)NC(=O)c1ccc(O[C@@H]2O[C@H](CO)[C@H](O)[C@H](O)[C@H]2O)cc1)C(N)=O)[C@@H](C)CC)NC(=O)[C@@H](NC(=O)[C@H](CCCCN)NC(=O)CSC[C@H](NC(=O)[C@H](Cc1ccccc1)NC(=O)[C@H](CCCCNC(=O)[C@H](CC(C)C)NC(=O)[C@H](CCCCN)NC(=O)[C@H](CCCCN)NC(=O)C[C@@H]1O[C@@H](C)[C@@H](O)[C@@H](O)[C@@H]1O)NC(=O)[C@H](CC(C)C)NC(=O)[C@H](CCCCN)NC(=O)[C@H](CCCCN)NC(=O)c1ccc(O[C@@H]2O[C@H](CO)[C@H](O)[C@H](O)[C@H]2O)cc1)C(N)=O)[C@@H](C)CC)C(N)=O |  | PAO1 | LB medium |  |  |  | > 64 µM
CC(C)[C@H](NC(=O)[C@H](CCCNC(=N)N)NC(=O)[C@H](CCCNC(=N)N)NC(=O)[C@@H](NC(=O)[C@H](C)NC(=O)[C@H](CC(N)=O)NC(=O)[C@H](CCCNC(=N)N)NC(=O)[C@@H](NC(=O)[C@H](CCCNC(=N)N)NC(=O)[C@H](CCCNC(=N)N)NC(=O)[C@@H](NC(=O)[C@@H](NC(=O)[C@H](CCCNC(=N)N)NC(=O)[C@H](CCCNC(=N)N)NC(=O)[C@H](Cc1c[nH]c2ccccc12)NC(=O)[C@H](Cc1c[nH]c2ccccc12)NC(=O)CN)[C@@H](C)O)C(C)C)C(C)C)C(C)C)C(=O)O |  | ATCC 27853 |  | 18 h | 37 °C |  | 8 µg/mL
O=C(NCCNCCO)c1cn(Cc2ccccc2)c2cc(OCc3ccc(C(F)(F)F)cc3)c(Cl)cc2c1=O |  | ATCC 27853 |  |  |  | ≥80% growth inhibition | > 32 µg/mL
CCn1c(-c2ccc(OC)cc2)c(-c2ccc(OC)cc2)n(Cc2c(C)cc(C)cc2C)c1=[Se+][Au-][P+](c1ccccc1)(c1ccccc1)c1ccccc1.[Cl-] | broth microdilution | carbapenem-resistant ATCC BAA-2108 |  | 24 h |  |  | > 40 µM
CC[C@H](C)[C@H](NC(=O)[C@H](C)NC(=O)[C@H](C)NC(=O)[C@H](Cc1ccccc1)NC(=O)[C@H](C)NC(=O)CNC(=O)[C@H](Cc1ccccc1)NC(=O)[C@@H](N)Cc1ccccc1)C(=O)N[C@@H](C)C(=O)N[C@@H](CO)C(=O)N[C@@H](CC(C)C)C(=O)N[C@H](C(=O)N[C@H](C(=O)N1CCC[C@H]1C(=O)N[C@@H](CCCCN)C(=O)N[C@@H](CC(C)C)C(=O)N[C@H](C(=O)N[C@@H](CCC(=O)O)C(=O)N[C@@H](CCCCN)C(=O)N[C@H](C(=O)N[C@@H](CCCCN)C(=O)N[C@@H](CCC(N)=O)C(=O)N[C@@H](C)C(=O)N[C@@H](CCCNC(=N)N)C(N)=O)[C@@H](C)CC)[C@@H](C)CC)[C@@H](C)CC)C(C)C | broth microdilution | ATCC 27853 |  |  |  |  | > 50 µM
CC[C@@H](C)[C@@H](NC(=O)[C@@H](C)NC(=O)[C@H](NC(=O)[C@@H](CC(=O)O)NC(=O)[C@@H](CCCCN)NC(=O)[C@@H](CO)NC(=O)[C@H](NC(=O)[C@@H](CC(N)=O)NC(=O)[C@@H](C)NC(=O)[C@H](NC(=O)[C@@H](CCC(=O)O)NC(=O)[C@@H](CCCCN)NC(=O)[C@H](NC(=O)[C@H](NC(=O)[C@@H](Cc1c[nH]cn1)NC(=O)[C@@H](CCCCN)NC(=O)[C@H](NC(=O)[C@@H](CCCCN)NC(=O)[C@@H](CCCCN)NC(=O)[C@H](NC(=O)[C@@H](CC(C)C)NC(=O)[C@@H](CCCCN)NC(=O)[C@@H](CC(N)=O)NC(=O)[C@@H](Cc1ccccc1)NC(=O)[C@@H](CCCNC(=N)N)NC(=O)[C@@H](CCCCN)NC(=O)[C@@H](CCCNC(=N)N)NC(=O)[C@@H](Cc1ccccc1)NC(=O)CN)C(C)C)C(C)C)[C@H](C)O)[C@H](C)CC)[C@H](C)O)C(C)C)C(C)C)C(=O)N[C@@H](C(=O)N[C@H](C)C(=O)NCC(=O)N[C@H](CO)C(=O)NCC(=O)N[C@@H](C(=O)N[C@H](C)C(=O)N[C@@H](C(=O)NCC(=O)N[C@H](C)C(=O)N[C@H](C)C(=O)N[C@H](CCSC)C(N)=O)C(C)C)C(C)C)C(C)C | broth microdilution | ATCC 27853 | CAMHB |  |  |  | 32 µg/mL

Some of these lines once more:
Compound | technique | strain | sample | time | temperature | direction | MIC
CC[C@@H](C)[C@@H](NC(=O)[C@@H](C)NC(=O)[C@H](NC(=O)[C@@H](CC(=O)O)NC(=O)[C@@H](CCCCN)NC(=O)[C@@H](CO)NC(=O)[C@H](NC(=O)[C@@H](CC(N)=O)NC(=O)[C@@H](C)NC(=O)[C@H](NC(=O)[C@@H](CCC(=O)O)NC(=O)[C@@H](CCCCN)NC(=O)[C@H](NC(=O)[C@H](NC(=O)[C@@H](Cc1c[nH]cn1)NC(=O)[C@@H](CCCCN)NC(=O)[C@H](NC(=O)[C@@H](CCCCN)NC(=O)[C@@H](CCCCN)NC(=O)[C@H](NC(=O)[C@@H](CC(C)C)NC(=O)[C@@H](CCCCN)NC(=O)[C@@H](CC(N)=O)NC(=O)[C@@H](Cc1ccccc1)NC(=O)[C@@H](CCCNC(=N)N)NC(=O)[C@@H](CCCCN)NC(=O)[C@@H](CCCNC(=N)N)NC(=O)[C@@H](Cc1ccccc1)NC(=O)CN)C(C)C)C(C)C)[C@H](C)O)[C@H](C)CC)[C@H](C)O)C(C)C)C(C)C)C(=O)N[C@@H](C(=O)N[C@H](C)C(=O)NCC(=O)N[C@H](CO)C(=O)NCC(=O)N[C@@H](C(=O)N[C@H](C)C(=O)N[C@@H](C(=O)NCC(=O)N[C@H](C)C(=O)N[C@H](C)C(=O)N[C@H](CCSC)C(N)=O)C(C)C)C(C)C)C(C)C | broth microdilution | ATCC 27853 | CAMHB |  |  |  | 32 µg/mL
